Measured values of several laboratories.
Each numbered part is a random draw from the data of one study; scales do not carry over between parts. Several values in a cell are separate wells, animals, samples, runs or records.
Chain of UniProt Q9UPZ9 (whole entry, looked up): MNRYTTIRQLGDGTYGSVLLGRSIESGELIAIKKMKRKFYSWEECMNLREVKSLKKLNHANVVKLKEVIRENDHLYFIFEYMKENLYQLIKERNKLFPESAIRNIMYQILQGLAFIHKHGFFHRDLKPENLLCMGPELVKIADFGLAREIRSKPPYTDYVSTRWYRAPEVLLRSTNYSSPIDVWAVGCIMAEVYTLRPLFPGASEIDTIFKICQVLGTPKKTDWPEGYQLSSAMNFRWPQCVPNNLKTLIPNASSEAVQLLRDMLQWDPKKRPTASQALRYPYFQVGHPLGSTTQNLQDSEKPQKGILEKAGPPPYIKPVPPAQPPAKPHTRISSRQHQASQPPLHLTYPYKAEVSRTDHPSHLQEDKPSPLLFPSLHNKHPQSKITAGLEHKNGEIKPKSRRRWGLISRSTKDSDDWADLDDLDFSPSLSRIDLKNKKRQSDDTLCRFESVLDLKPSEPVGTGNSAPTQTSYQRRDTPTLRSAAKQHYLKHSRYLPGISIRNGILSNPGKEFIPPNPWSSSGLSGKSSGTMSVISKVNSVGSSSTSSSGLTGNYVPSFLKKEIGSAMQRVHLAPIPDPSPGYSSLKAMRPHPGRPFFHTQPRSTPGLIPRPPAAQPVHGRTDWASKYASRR
Chain of UniProt P36897 (whole entry, looked up): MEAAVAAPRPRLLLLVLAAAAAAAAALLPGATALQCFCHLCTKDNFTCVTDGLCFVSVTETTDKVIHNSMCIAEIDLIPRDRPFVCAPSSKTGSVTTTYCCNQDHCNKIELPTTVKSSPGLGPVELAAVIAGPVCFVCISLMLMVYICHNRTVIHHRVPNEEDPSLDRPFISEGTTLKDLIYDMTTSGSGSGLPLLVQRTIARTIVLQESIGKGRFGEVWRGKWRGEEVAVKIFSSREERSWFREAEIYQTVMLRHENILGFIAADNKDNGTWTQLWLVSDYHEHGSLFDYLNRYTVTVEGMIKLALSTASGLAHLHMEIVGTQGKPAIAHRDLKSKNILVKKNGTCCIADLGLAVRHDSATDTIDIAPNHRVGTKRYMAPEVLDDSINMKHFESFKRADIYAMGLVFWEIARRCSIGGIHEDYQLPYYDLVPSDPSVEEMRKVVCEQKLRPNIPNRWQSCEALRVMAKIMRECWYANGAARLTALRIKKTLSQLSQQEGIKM
Chain of UniProt Q16539 (whole entry, looked up): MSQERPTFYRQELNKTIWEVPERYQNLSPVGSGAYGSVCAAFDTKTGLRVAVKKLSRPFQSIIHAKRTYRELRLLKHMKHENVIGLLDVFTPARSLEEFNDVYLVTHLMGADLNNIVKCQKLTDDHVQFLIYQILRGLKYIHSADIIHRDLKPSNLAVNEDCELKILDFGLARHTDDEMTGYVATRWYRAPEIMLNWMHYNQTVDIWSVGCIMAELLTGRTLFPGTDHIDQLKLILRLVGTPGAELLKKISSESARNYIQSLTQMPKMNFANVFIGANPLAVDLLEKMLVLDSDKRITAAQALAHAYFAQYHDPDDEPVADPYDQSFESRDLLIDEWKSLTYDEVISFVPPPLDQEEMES
Chain of UniProt P31152 (whole entry, looked up): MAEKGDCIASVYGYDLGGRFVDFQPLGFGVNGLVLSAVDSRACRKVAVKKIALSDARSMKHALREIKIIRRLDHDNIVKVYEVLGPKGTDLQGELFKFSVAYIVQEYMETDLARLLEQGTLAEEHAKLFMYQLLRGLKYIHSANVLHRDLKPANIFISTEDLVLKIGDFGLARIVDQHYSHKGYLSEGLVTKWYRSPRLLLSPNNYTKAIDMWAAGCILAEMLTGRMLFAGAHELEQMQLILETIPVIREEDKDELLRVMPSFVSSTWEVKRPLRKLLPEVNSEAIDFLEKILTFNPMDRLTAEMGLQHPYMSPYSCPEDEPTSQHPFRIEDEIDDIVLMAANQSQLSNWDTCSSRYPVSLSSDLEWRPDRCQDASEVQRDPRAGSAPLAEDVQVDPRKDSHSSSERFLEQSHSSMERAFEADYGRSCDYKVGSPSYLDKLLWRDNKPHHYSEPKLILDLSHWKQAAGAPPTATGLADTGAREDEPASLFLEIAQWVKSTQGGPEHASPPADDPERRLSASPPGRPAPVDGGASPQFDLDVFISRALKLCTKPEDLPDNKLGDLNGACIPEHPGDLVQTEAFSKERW
Chain of UniProt Q15349 (whole entry, looked up): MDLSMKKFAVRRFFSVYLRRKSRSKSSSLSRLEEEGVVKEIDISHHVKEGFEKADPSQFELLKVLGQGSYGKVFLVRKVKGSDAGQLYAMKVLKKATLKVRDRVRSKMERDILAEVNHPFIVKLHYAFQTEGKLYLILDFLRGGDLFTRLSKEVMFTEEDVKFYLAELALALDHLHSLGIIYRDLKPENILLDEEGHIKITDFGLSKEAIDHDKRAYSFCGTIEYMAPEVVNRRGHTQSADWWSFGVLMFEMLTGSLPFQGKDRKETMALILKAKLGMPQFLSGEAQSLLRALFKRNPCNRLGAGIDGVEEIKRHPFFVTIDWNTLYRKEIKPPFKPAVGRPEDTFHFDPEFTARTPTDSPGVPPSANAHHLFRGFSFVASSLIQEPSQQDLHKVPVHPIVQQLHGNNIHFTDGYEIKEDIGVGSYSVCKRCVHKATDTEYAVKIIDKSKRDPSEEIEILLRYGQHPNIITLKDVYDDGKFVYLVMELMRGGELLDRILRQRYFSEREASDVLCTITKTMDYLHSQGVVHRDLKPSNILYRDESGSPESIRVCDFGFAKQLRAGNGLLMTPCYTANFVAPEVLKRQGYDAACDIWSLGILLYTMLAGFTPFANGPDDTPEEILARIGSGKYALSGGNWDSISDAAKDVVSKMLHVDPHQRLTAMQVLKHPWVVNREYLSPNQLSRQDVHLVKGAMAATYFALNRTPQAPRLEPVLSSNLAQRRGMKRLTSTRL
Chain of UniProt P08588 (whole entry, looked up): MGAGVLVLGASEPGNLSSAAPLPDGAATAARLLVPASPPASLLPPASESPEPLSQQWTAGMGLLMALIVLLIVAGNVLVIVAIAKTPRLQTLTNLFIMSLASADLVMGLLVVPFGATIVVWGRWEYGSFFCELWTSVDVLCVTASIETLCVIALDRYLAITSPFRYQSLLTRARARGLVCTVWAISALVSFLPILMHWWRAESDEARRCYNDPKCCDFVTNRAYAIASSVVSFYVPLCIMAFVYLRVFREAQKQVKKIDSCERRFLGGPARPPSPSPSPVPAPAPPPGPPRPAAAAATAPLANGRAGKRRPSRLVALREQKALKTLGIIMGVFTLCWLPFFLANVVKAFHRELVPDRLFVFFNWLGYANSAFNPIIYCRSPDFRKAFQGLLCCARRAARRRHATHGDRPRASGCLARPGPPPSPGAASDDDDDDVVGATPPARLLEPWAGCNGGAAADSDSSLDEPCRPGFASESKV

Block 1
Species: human
Medium: microsomes or S9
Tested at: 2 µM
Time: 0.5 h
| SMILES | remaining compound [%] |
| --- | --- |
| COC(=O)c1ccc(C(=O)N2CCN(C(C)=O)N(C(=O)C[C@@H](Cc3cc(F)c(F)cc3F)NC(=O)OC(C)(C)C)CC2)cc1 | 9.35 |
| Nc1cc(Cl)c(Oc2ccc(Cl)nn2)c(Cl)c1 | 91.9 |
| CCOc1ccc(Nc2c(-c3cccc(O)c3)nc3ccccn23)cc1 | 45 |
| COC(=O)c1c(OC)cc2c(c1C)Oc1c(Cl)c(O)c(Cl)c(C)c1C(=O)O2 | 77.8 |
| Fc1cc2nc(-c3cnc(-c4cnccn4)s3)[nH]c2cc1F | 32.8 |

Block 2
SMILES: O=C(NCc1ncc(C(F)(F)F)cc1Cl)c1ccc2c(c1)C1(CCS(=O)(=O)CC1)[C@@H](C1CC1)N2S(=O)(=O)c1ccc(F)cc1
Read-out: cell-free assay
Technique: competition with immobilised ligand
Tested at: 1 µM
| target | remaining binding |
| --- | --- |
| STK36 (Homo sapiens, UniProt Q9NRP7) | 100% |
| CLK4 (Homo sapiens, UniProt Q9HAZ1) | 100% |
| Tyrosine-protein kinase ABL1, phosphorylated (ABL1, Homo sapiens, UniProt P00519, Y253F) | 100% |
| MAPK14 (Homo sapiens, UniProt Q16539) | 100% |
| EGFR (Homo sapiens, UniProt P00533, L858R/T790M) | 75% |
| AKT2 (Homo sapiens, UniProt P31751) | 100% |
| Ribosomal protein S6 kinase alpha-2, N-terminal kinase domain (RPS6KA2, Homo sapiens, UniProt Q15349) | 93% |
| FLT3 (Homo sapiens, UniProt P36888, ITD) | 79% |
| TGFBR1 (Homo sapiens, UniProt P36897) | 84% |
| MAPK4 (Homo sapiens, UniProt P31152) | 89% |
| CILK1 (Homo sapiens, UniProt Q9UPZ9) | 97% |

Block 3
SMILES: CC(C)n1cnc(-c2ccc(F)cc2)c1-c1ncc(C(=O)Nc2ccc(N3CCN(C)CC3)cc2)[nH]1
Technique: phase 2a trial
Species: idiopathic pulmonary fibrosis patients
| setting | patients with cholecystitis [%] |
| --- | --- |
| 60 mg once daily, adverse event grade 2 | 0 |
| 60 mg once daily, adverse event grade 5 | 0 |
| 30 mg once daily, adverse event grade 1 | 0 |
| 30 mg once daily, adverse event grade 4 | 0 |

Further values, each from its own experiment
CAMK2A: Calcium/calmodulin-dependent protein kinase type II subunit alpha (CAMK2A, Homo sapiens, UniProt Q9UQM7)
Chain of UniProt Q9UQM7 (whole entry, looked up): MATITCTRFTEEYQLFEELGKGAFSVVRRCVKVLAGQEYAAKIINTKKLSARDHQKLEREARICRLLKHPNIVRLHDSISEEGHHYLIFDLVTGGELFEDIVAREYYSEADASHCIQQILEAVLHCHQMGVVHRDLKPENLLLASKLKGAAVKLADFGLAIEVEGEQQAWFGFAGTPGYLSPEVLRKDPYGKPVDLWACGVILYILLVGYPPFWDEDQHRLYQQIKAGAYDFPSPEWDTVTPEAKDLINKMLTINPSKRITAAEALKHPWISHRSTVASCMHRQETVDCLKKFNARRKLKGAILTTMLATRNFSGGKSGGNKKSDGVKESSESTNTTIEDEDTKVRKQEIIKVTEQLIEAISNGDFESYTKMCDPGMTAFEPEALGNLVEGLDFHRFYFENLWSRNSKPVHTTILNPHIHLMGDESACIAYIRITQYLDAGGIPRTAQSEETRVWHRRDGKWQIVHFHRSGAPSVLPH
| SMILES | tested on | assay | test system | setting | scale | quantity | result |
| --- | --- | --- | --- | --- | --- | --- | --- |
| Cn1c(N)nc2c(ncn2[C@@H]2O[C@H](CO)[C@@H](O)[C@H]2O)c1=O | CAMK2A | enzyme activity, inhibitor |  | 10 µM |  | inhibition | -18% |
| CC(=O)N[C@@H](Cc1c[nH]c2ccccc12)C(=O)N[C@@H](CCC(=O)C=[N+]=[N-])C(=O)OC(C)C |  | UPLC-MS/MS | EL4 tumor, C57BL/6 CES1-/- mice, tumor | subcutaneous, 0.3 mg/kg DON equivalent daily, 5 days | higher = more metabolite | spermidine level | 4.26e+07 a.u. and 5.48e+07 a.u. and 3.58e+07 a.u. and 4.29e+07 a.u. and 5.39e+07 a.u. |
| Cc1cc2c(OCC(CNC(C)(C)C)OC(=O)c3ccccc3)cccc2[nH]1 (stereo not drawn) | ADRB1 (Homo sapiens, UniProt P08588) | agonist | cells |  |  | efficacy | 113% |
| CC[C@H](CC[C@@H](C)[C@H]1CC[C@H]2[C@@H]3CC=C4C[C@@H](O[C@@H]5O[C@H](CO)[C@@H](O)[C@H](O)[C@H]5O)CC[C@]4(C)[C@H]3CC[C@]12C)C(C)C | CAMK2A | enzyme activity, inhibitor |  | 10 µM |  | inhibition | -27% |

Repeated from above (block 2):
| target | remaining binding |
| --- | --- |
| AKT2 (Homo sapiens, UniProt P31751) | 100% |
